Measured values of several laboratories.
Each numbered part is a random draw from the data of one study; scales do not carry over between parts.

Sample 1
Target: Interferon regulatory factor 5, full length, phosphomimetic (IRF5, Homo sapiens, UniProt Q13568-2, residues 1-514, S451D/S453D/S456D/S462D)
Technique: protein-binding microarray
Form: double-stranded DNA, one strand shown
Medium: in vitro
Tested at: 940 nM top
Notes: 60-bp whole probe
With: salmon DNA 0.4 mg/ml
Baseline: random background probes
Reading: higher = stronger binding
Constant ends, left off below: GCCTAGCAC … GTCTTGATTCGCTTGACGCTGCTG
Oligonucleotide	fitted relative affinity [z-score]
GACGGACTGGGGTGTCGGGACGTGCTA	-0.0311
TCACCATTATATTTTAAACTGTGCTAG	1.08
TTAGGTTTCGGGTTTCGGCTAGTGCTA	10.5
CCATCTCTGCTCCTTCTGACAGTGCTA	0.836
GTAGGACTGGGTTTCGGTTAGTGCTAG	6.6
CAAGTGATGTAGCTGGGAGCGTGCTAG	-0.403
GACGGACTGGGTCTCGAGACGTGCTAG	-0.151
TTCCTTCTGCCTGTCCATTCGTGCTAG	1.38
TCATCTTTACTTCACTCACTGTGCTAG	1.64
GACGATTTCAGGTTTCGAGACGTGCTA	2.25
GACTGACTGGACTATCGGGACGTGCTA	-0.0757
TTAGCTATCCTTCTCCTTTAGTGCTAG	0.539
TTAGGTTTCGGGACTGGGTTCGTGCTA	8
GTCGGACTGGGTTTCGGGACGTGCTAG	3.58
TTGGATATCGGGTTTCGATTAGTGCTA	5.35
TCCCCTCTAGGTTCTCTGAAGGTGCTA	0.447
CTAATTTTTACTTTCTGAATGTGCTAG	2.05
TACGGTTTCGACTTTCGGGACGTGCTA	6.96
GCCGGTTTCCTTATCCTGACGTGCTAG	1.83
GACGAACTGCGACTGGAGACGTGCTAG	-0.737
GACAATCTCAGACTGGAGACGTGCTAG	-0.326
GTCATTATCCTTGTCCCTCCGTGCTAG	0.843
GACGGTATCCTAATGCTGACGTGCTAG	-0.0702
TTAGAACTGAGTATCGATCAGTGCTAG	3.87
CTAGGACTGGACACTGGGTTAGTGCTA	-0.39

Sample 2
Target: Histone acetyltransferase KAT6A, both winged helices, GST fusion (KAT6A, Homo sapiens, UniProt Q92794, residues 1-181)
Technique: protein binding microarray
Form: double-stranded DNA, one strand shown
Medium: in vitro
Tested at: not given
Notes: 8-mer, flanks averaged, mean of 2 arrays, mostly near background
Baseline: not given
Reading: higher = stronger binding
Construct (chain): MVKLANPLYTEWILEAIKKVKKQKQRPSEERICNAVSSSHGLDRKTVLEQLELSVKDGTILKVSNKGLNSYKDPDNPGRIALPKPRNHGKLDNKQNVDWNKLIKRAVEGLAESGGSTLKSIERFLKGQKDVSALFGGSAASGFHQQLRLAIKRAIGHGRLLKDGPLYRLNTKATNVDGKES
Oligonucleotide	E-score
AGGGTCGG	-0.00492
AATCATAG	-0.141
GGCGAGAC	0.041
AATCCCAA	-0.122
CTTCCTTC	-0.0919
AAATCCAT	-0.213
CTGGCGTA	0.0879
CCTCTCAC	-0.123
GAGTGTGC	-0.0806
CTTGTCTA	-0.104
CTACCGGA	0.0729
CCACACCC	-0.102
GATTAGCA	-0.0128
TCGCTGAA	-0.0176
ACACTTGA	-0.156
GAAGCCAA	-0.173

Sample 3
Target: Fragile X messenger ribonucleoprotein 1, C-terminal low-complexity region (Fmr1, Mus musculus, UniProt P35922)
Technique: RNA Bind-n-Seq
Form: RNA
Medium: in vitro
Tested at: 200 nM
Notes: whole 134-nt RNA, ends assumed
With: 150 mM KCl
Baseline: input library
Reading: higher = stronger binding
Oligonucleotide	log2 enrichment
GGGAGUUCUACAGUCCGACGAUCCCACCAUGACCCCUGACGGUCUGGCUGUGACCCCAACGCCGGUGCCCGUGGUCGGGAGCCAGAUGACCAGACAAGCCCGGCGCCUCUACGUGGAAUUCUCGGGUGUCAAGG	0.532
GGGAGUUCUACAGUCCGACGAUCUCAAGUCCUGUGCUACACAUCGUAUGUACCGAAUCGGGGUGGGGAGGGGAGGGGAAAGUAUUAUGUUACGCCGUUCGGAUCUGCACUUCCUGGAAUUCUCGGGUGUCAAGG	1.08
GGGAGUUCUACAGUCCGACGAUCCCUGUGCUACACAUCGUAUGUACCGAAUCGGGGUUUUUUUGGUUUUUUUGGUUUUUUUGGAAAGUAUUAUGUUACGCCGUUCGGAUCUGCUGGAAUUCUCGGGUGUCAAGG	-0.478
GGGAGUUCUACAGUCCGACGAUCAGUCCUGUGCUACACAUCGUAUGUACCGAAUCGGGUGGGUUUUUUUGGGUUUUUGGGAAAGUAUUAUGUUACGCCGUUCGGAUCUGCACUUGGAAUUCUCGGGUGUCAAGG	0.438
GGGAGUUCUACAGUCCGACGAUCCUCAAGUCCUGUGCUACACAUCGUAUGUACCGAAUCGGUUUGGUGGUUUUUGGAAAGUAUUAUGUUACGCCGUUCGGAUCUGCACUUCCAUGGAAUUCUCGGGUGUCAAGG	0.00253
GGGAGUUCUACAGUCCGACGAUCAGUCCUGUGCUACACAUCGUAUGUACCGAAUCGGUUUUUUUGGAAAGGUUUUUUUGGAAAGUAUUAUGUUACGCCGUUCGGAUCUGCACUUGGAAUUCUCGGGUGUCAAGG	-1.34
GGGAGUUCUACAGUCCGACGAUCUGUGCUACACAUCGUAUGUACCGAAUCGGGGCCCCCCCGGGCCCCCCCGGGGCCCCCCCGGGAAAGUAUUAUGUUACGCCGUUCGGAUCUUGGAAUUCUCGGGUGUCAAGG	-1.54
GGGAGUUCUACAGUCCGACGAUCAGUCCUGUGCUACACAUCGUAUGUACCGAAUCGGUUUUUGGGGUUUUUGGUUUUUGGGAAAGUAUUAUGUUACGCCGUUCGGAUCUGCACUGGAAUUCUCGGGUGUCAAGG	-0.393
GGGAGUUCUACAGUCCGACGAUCCACAGACAACACGCACUCACACAGACACAGAGGGAAGGGGUUGGGAUGGGGACAGGGUGCACAGCAGGGCGGGGUAGGACCCCAGCCCCUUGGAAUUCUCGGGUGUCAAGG	1.14
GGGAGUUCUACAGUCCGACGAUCUGGCCCUGGUCGCAUGCGGGGAGGAAGAGGUGGCCUCAUGGAUCGUGGUGGUCCCGGUGGAAUGUUCAGAGGUGGCCGUGGUGGAGACAGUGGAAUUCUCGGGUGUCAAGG	-0.00941

Sample 4
Target: Sal-like protein 4, full length isoform B (SALL4, Homo sapiens, UniProt Q9UJQ4-2, residues 1-616)
Technique: universal PBM
Form: double-stranded DNA, one strand shown
Medium: in vitro
Tested at: not given
Notes: 8-mer, flanks averaged, mean of replicates
Reading: higher = stronger binding
Residues (chain): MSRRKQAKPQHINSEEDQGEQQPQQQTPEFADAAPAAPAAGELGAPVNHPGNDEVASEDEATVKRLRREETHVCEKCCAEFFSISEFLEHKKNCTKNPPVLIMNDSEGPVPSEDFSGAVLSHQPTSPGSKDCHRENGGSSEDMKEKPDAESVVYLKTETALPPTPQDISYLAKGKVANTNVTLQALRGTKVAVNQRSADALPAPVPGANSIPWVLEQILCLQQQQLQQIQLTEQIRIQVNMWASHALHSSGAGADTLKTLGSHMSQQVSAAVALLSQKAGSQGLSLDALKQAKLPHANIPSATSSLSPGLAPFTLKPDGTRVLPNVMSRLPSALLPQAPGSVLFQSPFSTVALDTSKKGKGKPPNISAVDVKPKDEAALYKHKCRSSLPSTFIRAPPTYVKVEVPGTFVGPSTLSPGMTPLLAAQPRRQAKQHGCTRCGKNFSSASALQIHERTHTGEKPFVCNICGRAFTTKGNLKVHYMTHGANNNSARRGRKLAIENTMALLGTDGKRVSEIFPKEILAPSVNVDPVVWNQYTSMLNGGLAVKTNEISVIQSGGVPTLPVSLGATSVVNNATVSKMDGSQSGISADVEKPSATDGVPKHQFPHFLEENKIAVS
Oligonucleotide	E-score
CCGTACAC	-0.129
CTCGTAGA	-0.0726
GGAGCGAC	-0.223
GAACAGAC	-0.0859
ATTCTATG	0.201
CAATCCAC	0.0495
CTACTACA	0.203
ACTTCTCG	0.0294
CTCCTTAC	0.0661
CGTGAACA	-0.0779
ATGGATAG	0.04
CCGCATGA	-0.134
CACTATCA	0.0959
AAATCGCA	0.131
TCTCATAA	0.307
GAACAATC	0.0519
ATAGTCGG	-0.168

A few entries again (sample 2):
Oligonucleotide	E-score
GATTAGCA	-0.0128
GAGTGTGC	-0.0806
TCGCTGAA	-0.0176
CTACCGGA	0.0729
CCACACCC	-0.102
AATCATAG	-0.141
AATCCCAA	-0.122
CCTCTCAC	-0.123
CTTGTCTA	-0.104
ACACTTGA	-0.156
